Measured values from different studies.
Lines come from different studies, so protocols differ. ± marks the error that the study gave.

SMILES | assay | system | conditions | how to read | quantity | value
CC[C@@]1(O)C(=O)OCc2c1cc1n(c2=O)Cc2cc3c(CN(C)C)c(O)ccc3nc2-1 | – | human patients, plasma | oral, 8 mg weekly, MTD arm, weekly dosing, together with: pazopanib | reference: with pazopanib over alone | half-life ratio | 0.84
CN[C@@](C)(C[18F])C(=O)O | – | SCID mouse A549 xenograft, pancreas | 60 min, post injection | – | tissue uptake | 31 ± 7.6 %ID/g
CNC(=O)c1ccc(-c2cnn3ccc(C(=O)N(C)c4ccc(Cl)c(C(=O)OC)c4)cc23)cc1 | – | beagle dogs, both sexes, plasma | oral, 250 mg/kg/day, day 1, 2-week toxicology study | – | AUC(0-8 h) | 207 ng·h/mL
Cc1c(P(=S)(c2ccccc2)c2ccccc2)n2ccccc2[n+]1C/C=C/c1ccccc1 | – | mouse, brain | intraperitoneal, 10 mg/kg, 30 min | – | concentration | 25 ng/g
CCCCCOc1ccc(-c2ccc(-c3ccc(C(=O)N[C@H]4C[C@@H](O)[C@@H](O)NC(=O)[C@@H]5[C@@H](O)[C@@H](C)CN5C(=O)[C@H]([C@@H](C)O)NC(=O)[C@H]([C@H](O)[C@@H](O)c5ccc(O)cc5)NC(=O)[C@@H]5C[C@@H](O)CN5C(=O)[C@H]([C@@H](C)O)NC4=O)cc3)cc2)cc1 | population PK model | patients aged 5 to < sample A years | intravenous, 3.0 mg/kg loading, 1.5 mg/kg once daily, mean, weight-corrected | – | Vss | 0.75 L/kg
CCc1cccc(C)c1N(C(=O)CCl)C(C)COC (stereo not drawn) | LC-MS/MS | herbicide solution | 2 h, 40 °C, together with: 254 nm UV exposure | – | remaining amount | 25 ± 15.9%
COc1cnc(-n2cnc(C)n2)c2[nH]cc(C(=O)C(=O)N3CCN(C(=O)c4ccccc4)CC3)c12 | – | human | oral, dose not given, 12 h, together with: fostemsavir 600 mg BID with methadone | – | C12 | 409 ng/mL
CC1(C)S[C@@H]2[C@H](NC(=O)[C@@H](C(=O)O)c3ccsc3)C(=O)N2[C@H]1C(=O)O | – | rat plasma | 8000 ng/mL, three freeze-thaw cycles | reference: nominal concentration | relative error | -0.5%
c1cc([C@H]2CC[C@]3(CC2)OO[C@]2(O3)C3CC4CC(C3)CC2C4)ccc1OCCN1CCOCC1 | – | human, plasma | oral, 800 mg, single dose, fed | – | AUC(0-inf) | 23900 ng·h/mL
O[C@H]1CCCN[C@@H]1CCCn1cnc2c(Cl)c(Cl)ccc21 | – | human, plasma | oral, 100 mg single dose, solution, geometric mean | – | Vz/F | 1890 L
c1cc2ccc3cccc4ccc(c1)c2c34 | HPLC-fluorescence | Wistar rat, male, jejunum | oral, 4 mg/kg, 24 h | – | tissue concentration | 28.3 ± 12.4 ng/g
CC(C)C[C@@H]1NC(=O)[C@@H]2CSSC[C@@H](C(=O)NCC(N)=O)NC(=O)[C@H](Cc3ccccc3)NC(=O)CNC(=O)[C@H](CC(N)=O)NC(=O)[C@@H]3CCCN3C(=O)CNC(=O)[C@@H]3CSSC[C@H](NC(=O)[C@H](CO)NC(=O)[C@H]([C@@H](C)O)NC(=O)[C@@H]4CCCN4C(=O)[C@H](C)NC(=O)[C@H](Cc4c[nH]c5ccccc45)NC(=O)[C@H](CC(=O)O)NC(=O)CNC(=O)[C@H](CCCNC(=N)N)NC(=O)CNC(=O)[C@H](CCC(N)=O)NC(=O)[C@@H]4CCCN4C(=O)[C@@H](NC(=O)CNC(=O)c4ccc(F)cc4)CSSC[C@H](NC(=O)CNC(=O)[C@H](C)NC1=O)C(=O)N[C@@H](C(C)C)C(=O)N3)C(=O)N[C@@H](CO)C(=O)N[C@@H](CCC(N)=O)C(=O)N[C@@H](CC(=O)O)C(=O)N[C@@H](CO)C(=O)N[C@@H](CC(=O)O)C(=O)N2 [fluorine-18 labelled] | static microPET | nude mouse, U-87 MG xenograft, tumour | intravenous, 0.5 h, together with: c(RGDyK) 330 µg co-injected | – | tumour uptake | 0.61 ± 0.14 %ID/g

A few entries again:
SMILES | assay | system | conditions | how to read | quantity | value
CC[C@@]1(O)C(=O)OCc2c1cc1n(c2=O)Cc2cc3c(CN(C)C)c(O)ccc3nc2-1 | – | human patients, plasma | oral, 8 mg weekly, MTD arm, weekly dosing, together with: pazopanib | reference: with pazopanib over alone | half-life ratio | 0.84
